Assay results collected from several papers.
Compare with care: the assays were run in different laboratories.
Organism: Candida albicans

For `CC[C@H](C)[C@H](NC(=O)[C@@H](NC(=O)[C@H](C)NC(=O)[C@@H](N)CCCNC(=N)N)C(C)C)C(=O)N[C@@H](CCCNC(=N)N)C(=O)N[C@@H](Cc1c[nH]c2ccccc12)C(=O)N[C@@H](Cc1c[nH]c2ccccc12)C(N)=O`, the MIC was 128 µg/mL.
The MIC of `C#Cc1ccc(O)c(C=NNC(=O)c2ccc(Br)cc2Br)c1` is reported as 16 µg/mL (A39; 48 h).
With `N=C(N)NCCC[C@H](NC(=O)[C@H](Cc1c[nH]c2ccccc12)NC(=O)[C@H](CCCNC(=N)N)NC(=O)[C@H](Cc1c[nH]c2ccccc12)NC(=O)[C@H](Cc1c[nH]c2ccccc12)NC(=O)[C@H](Cc1c[nH]c2ccccc12)NC(=O)[C@H](CCCNC(=N)N)NC(=O)[C@H](Cc1c[nH]c2ccccc12)NC(=O)[C@@H](N)CCCNC(=N)N)C(=O)N[C@@H](Cc1ccccc1)C(N)=O` the MIC was 32 µM (broth microdilution; CGMCC 2.209, RPMI 1640-MOPS; 48 h, 30 °C, added: NaCl 150 mM).
With `CCCCCCC[C@@H]1CC(=O)N[C@H](CC(C)C)C(=O)N[C@@H](CO)C(=O)N[C@@H]([C@@H](C)O)C(=O)N[C@H](Cc2ccccc2)C(=O)N[C@@H]([C@@H](C)CC)C(=O)O1` the MIC was > 100 µM (fungal growth, XTT; SC5314).
`CC[C@H](C)[C@H](NC(=O)CN)C(=O)N[C@@H](C)C(=O)N[C@@H](CC(=O)O)C(=O)N[C@@H](C)C(=O)N[C@H](C(=O)N[C@@H](CCCCN)C(=O)N[C@@H](CCCCN)C(=O)N[C@H](C(=O)N[C@@H](C)C(=O)N[C@@H](CCCCN)C(=O)N[C@@H](C)C(=O)N[C@@H](CC(C)C)C(=O)NCC(N)=O)[C@@H](C)CC)[C@@H](C)CC` has an MIC of 64 µg/mL (ATCC 90029, RPMI MOPS; 24 h, pH 7.0, 33 °C).
The MIC of `C#Cc1ccc(O)c(C=NNC(=O)c2cc(Br)cc(Br)c2O)c1` is reported as 0.5 µg/mL (A39; 48 h).
With `CC[C@H](C)[C@H](NC(=O)[C@H](CCCCN)NC(=O)[C@@H](NC(=O)[C@@H](NC(=O)[C@H](CC(C)C)NC(=O)[C@H](CCCNC(=N)N)NC(=O)[C@@H](NC(=O)[C@H](CC(C)C)NC(=O)[C@H](CCCNC(=N)N)NC(=O)CNC(=O)[C@H](Cc1ccccc1)NC(=O)[C@@H](N)CCCNC(=N)N)[C@@H](C)CC)[C@@H](C)CC)C(C)C)C(=O)N[C@@H](C)C(=O)N[C@@H](CCCNC(=N)N)C(=O)N[C@@H](CCCNC(=N)N)C(=O)N[C@@H](C)C(=O)N[C@@H](Cc1c[nH]cn1)C(=O)N[C@@H](CCCNC(=N)N)C(=O)N[C@@H](C)C(=O)N[C@@H](CCCNC(=N)N)C(=O)N[C@@H](CO)C(=O)N[C@@H](C)C(=O)N[C@H](C(=O)N[C@@H](CCCCN)C(=O)N[C@@H](C)C(=O)N[C@@H](C)C(=O)N[C@@H](CO)C(=O)N[C@@H](CC(N)=O)C(=O)N[C@H](C(=O)N[C@@H](C)C(=O)N[C@@H](CCC(=O)O)C(=O)N[C@@H](CC(C)C)C(=O)N[C@@H](C)C(=O)N[C@@H](Cc1c[nH]cn1)C(=O)NCC(=O)N[C@@H](CCC(=O)O)C(=O)O)C(C)C)C(C)C` the MIC was > 8.01 µM (broth microdilution; 36 h, 35 °C).
For `CC(C)C[C@H](NC(=O)[C@H](Cc1c[nH]c2ccccc12)NC(=O)[C@H](CC(C)C)NC(=O)[C@@H](NC(=O)[C@H](CC(C)C)NC(=O)[C@H](CCCNC(=N)N)NC(=O)[C@@H](N)CCCNC(=N)N)[C@@H](C)O)C(=O)N[C@H](C(=O)N[C@@H](CC(C)C)C(=O)N[C@@H](CCCNC(=N)N)C(=O)N[C@@H](CCCNC(=N)N)C(N)=O)[C@@H](C)O`, the MIC was 2 µM (CGMCC 2.209, RPMI 1640 MOPS-buffered; 48 h, 37 °C, tested up to 128 µM).
`CC[C@H](C)[C@H](NC(=O)CN)C(=O)NCC(=O)N[C@@H](C)C(=O)N[C@H](C(=O)N[C@@H](CC(C)C)C(=O)N[C@@H](CCCCN)C(=O)N[C@H](C(=O)N[C@@H](CC(C)C)C(=O)N[C@H](C(=O)N[C@H](C(=O)NCC(=O)N[C@@H](CC(C)C)C(=O)N1CCC[C@H]1C(=O)N[C@@H](C)C(=O)N[C@@H](CC(C)C)C(=O)N[C@H](C(=O)N[C@@H](CO)C(=O)N[C@@H](Cc1c[nH]c2ccccc12)C(=O)N[C@H](C(=O)N[C@@H](CCCCN)C(=O)N[C@@H](CCCNC(=N)N)C(=O)N[C@@H](CCCCN)C(=O)N[C@@H](CCCNC(=N)N)C(=O)N[C@@H](CCC(N)=O)C(=O)N[C@@H](CCC(N)=O)C(N)=O)[C@@H](C)CC)[C@@H](C)CC)[C@@H](C)O)[C@@H](C)O)C(C)C)C(C)C` has an MIC of 8 µM (broth microdilution; 17546, RPMI 1640-MOPS; 48 h, 30 °C).
For `CC[C@H](C)[C@H](NC(=O)CN)C(=O)NCC(=O)N[C@@H](C)C(=O)N[C@H](C(=O)N[C@@H](CC(C)C)C(=O)N[C@@H](CCCCN)C(=O)N[C@H](C(=O)N[C@@H](CC(C)C)C(=O)N[C@H](C(=O)N[C@H](C(=O)NCC(=O)N[C@@H](CC(C)C)C(=O)N1CCC[C@H]1C(=O)N[C@@H](C)C(=O)N[C@@H](CC(C)C)C(=O)N[C@H](C(=O)N[C@@H](CO)C(=O)N[C@@H](Cc1c[nH]c2ccccc12)C(=O)N[C@H](C(=O)N[C@@H](CCCCN)C(=O)N[C@@H](CCCNC(=N)N)C(=O)N[C@@H](CCCCN)C(=O)N[C@@H](CCCNC(=N)N)C(=O)N[C@@H](CCC(N)=O)C(=O)N[C@@H](CCC(N)=O)C(N)=O)[C@@H](C)CC)[C@@H](C)CC)[C@@H](C)O)[C@@H](C)O)C(C)C)C(C)C`, the MIC was 4 µM (broth microdilution; SP 3876, RPMI-1640; 48 h, 30 °C).
With `N=C(N)NCCC[C@H](NC(=O)[C@H](Cc1c[nH]c2ccccc12)NC(=O)[C@H](CCCNC(=N)N)NC(=O)[C@H](Cc1c[nH]c2ccccc12)NC(=O)[C@H](Cc1c[nH]c2ccccc12)NC(=O)[C@H](Cc1c[nH]c2ccccc12)NC(=O)[C@H](CCCNC(=N)N)NC(=O)[C@H](Cc1c[nH]c2ccccc12)NC(=O)[C@@H](N)CCCNC(=N)N)C(N)=O` the MIC was 32 µM (broth microdilution; CGMCC 2.209, RPMI 1640-MOPS; 48 h, 30 °C, added: CaCl2 2 mM).
For `CC[C@H](C)[C@H](NC(=O)[C@@H](NC(=O)[C@@H](NC(=O)[C@H](Cc1c[nH]c2ccccc12)NC(=O)[C@H](Cc1c[nH]c2ccccc12)NC(=O)[C@H](CCCNC(=N)N)NC(=O)[C@@H](N)CCCNC(=N)N)[C@@H](C)O)C(C)C)C(N)=O`, the MIC was 32 µg/mL.

Repeated from above:
For `CC(C)C[C@H](NC(=O)[C@H](Cc1c[nH]c2ccccc12)NC(=O)[C@H](CC(C)C)NC(=O)[C@@H](NC(=O)[C@H](CC(C)C)NC(=O)[C@H](CCCNC(=N)N)NC(=O)[C@@H](N)CCCNC(=N)N)[C@@H](C)O)C(=O)N[C@H](C(=O)N[C@@H](CC(C)C)C(=O)N[C@@H](CCCNC(=N)N)C(=O)N[C@@H](CCCNC(=N)N)C(N)=O)[C@@H](C)O`, the MIC was 2 µM (CGMCC 2.209, RPMI 1640 MOPS-buffered; 48 h, 37 °C, tested up to 128 µM).
